Results pooled from the literature.
Numbers after ± are the reported error.

SMILES	assay	system	conditions	how to read	measurement	result
CC(C)(O)c1ncc([S@](N)(=O)=NC(=O)Nc2c3c(cc4c2CCC4)CCC3)s1	–	healthy human volunteers, plasma	oral, 100 mg once daily, day 14, spray-dried dispersion	–	dose-normalised AUC(0-tau)	967 ng·h/mL/mg
CCCCCCCC(=O)OC[C@H](NC(=O)[C@H](CO)NC(=O)CN)C(=O)N[C@@H](Cc1ccccc1)C(=O)N[C@@H](CC(C)C)C(=O)N[C@@H](CO)C(=O)N1CCC[C@H]1C(=O)N[C@@H](CCC(=O)O)C(=O)N[C@@H](Cc1cnc[nH]1)C(=O)N[C@@H](CCC(N)=O)C(=O)N[C@@H](CCCNC(=N)N)C(=O)N[C@H](C(=O)N[C@@H](CCC(N)=O)C(=O)N[C@@H](CCC(N)=O)C(=O)N[C@@H](CCCNC(=N)N)C(=O)N[C@@H](CCCCN)C(=O)N[C@@H](CCC(=O)O)C(=O)N[C@@H](CO)C(=O)N[C@@H](CCCCN)C(=O)N[C@@H](CCCCN)C(=O)N1CCC[C@H]1C(=O)N1CCC[C@H]1C(=O)N[C@@H](C)C(=O)N[C@@H](CCCCN)C(=O)N[C@@H](CC(C)C)C(=O)N[C@@H](CCC(N)=O)C(=O)N1CCC[C@H]1C(=O)N[C@@H](CCCNC(=N)N)C(=O)O)C(C)C	–	chronic HFrEF patients non-paced	intravenous infusion, 0.1 µg/kg/min, 30 min after infusion end	–	heart rate	71.8 ± 13.6 bpm
COC(=O)c1ccc(CCc2cc3cc4nc(c(OC)c5[nH]c(cc6nc(cc2[nH]3)CC6(C)C)cc5CCCNC(=O)OC(C)(C)C)C(=O)C4(C)C)cc1	–	DMF	room temperature	–	Qy absorption FWHM	23 nm
CC(C)[C@H](NC(=O)CNC(=O)[C@H](CCC(N)=O)NC(=O)[C@H](C)N)C(=O)O	LC-MS/MS	human, plasma	intravenous, 20 mg/kg three times daily, day 1, first dose, 10 min infusion, geometric mean	–	AUC(0-last)	506 ng·h/mL
O=C1CCc2ccc(NS(=O)(=O)c3cccc(Oc4ccccc4)c3)cc2N1	–	C57BL/6 mouse, plasma	oral, 3 mg/kg	–	half-life	4.2 h
CCCCCC(O)C=CC1OC2OC(C1CC=CCCCC(=O)O)C2(F)F (stereo not shown)	–	50 mM phosphate buffer	pH 7.40, 23 °C	–	hydrolysis rate constant	2.5e-08 s⁻¹
C=CC(=O)Nc1cc(Nc2nccc(-c3cn(C4CC4)c4ccccc34)n2)c(OC)cc1N(C)CCNC	radio-HPLC	human male, feces	oral, 110 mg, 0 to 48 h, sample holds 45.32% dose	relative to: sample radioactivity	share of radioactivity	12.3%
C[C@H]1CO[C@@H]2Cn3cc(C(=O)NCc4ccc(F)cc4F)c(=O)c(O[C@@H]4O[C@H](C(=O)O)[C@@H](O)[C@H](O)[C@H]4O)c3C(=O)N12	–	humans UGT1A1 wild type	oral, 30 mg, 1 weeks after last dose	–	participants with detectable plasma drug	60%
NC12CNCCNCC(NCc3ccc(CNC(=O)CCCC(=O)NCc4ccc(-c5nncnn5)cc4)cc3)(CNCCNC1)CNCCNC2.[64Cu+2]	OLINDA dosimetry	ovaries	24 h pretargeting interval, with: huA33-TCO pretargeting	–	mean absorbed dose	0.0404 rad/mCi
CC(C)(C)NCC(SS(=O)(=O)O)c1ccccc1 (stereo not shown)	–	Swiss Webster mouse, female, plasma	intravenous, 15 mg/kg, AUC to last time point	–	initial volume of distribution	0.403 L/kg
CCCC[C@H](NC(=O)[C@H](CC(C)C)N(C)C(=O)CNC(=O)[C@@H](NC(=O)[C@H](Cc1ccccc1)NC(=O)[C@H](CCCCN)NC(=O)[C@@H](N)CC(=O)O)C(C)C)C(N)=O	–	anaesthetised Sinclair minipigs	SC, 30 µg/kg	relative to: baseline	mean arterial pressure change	1.97 ± 3.35%
CCc1cc(Nc2nc(-c3ccc(-n4cnc(C)c4)c(F)c3)cs2)c(C)cc1C	–	human, both sexes, plasma	oral, 400 mg once daily, day 14, multiple dose, geometric mean	–	apparent terminal volume (Vz/F)	413000 mL
NC(=O)c1ccc(C(=O)NOCc2ccc(Sc3cccc(Cl)c3)c(C(F)(F)F)c2)cc1	–	male ICR mouse, plasma	intravenous, 10 mg/kg	–	Vss	0.0929 L/kg
C=C(c1cc(F)c(C(=O)O)c(F)c1)c1cc2c(cc1C)C(C)(C)CCC2(C)C	–	Sprague-Dawley rat, male	oral, 100 mg/kg, 6 h, sesame oil vehicle	–	blood cholesterol	71 ± 12.8 mg/dL
Cn1c(=O)oc2ccc(-c3ccc(CC(C#N)NC(=O)C4CNCCCO4)c(F)c3)cc21 (stereo not shown)	item: blood triglycerides increased	human volunteers	oral	–	treatment-emergent adverse event incidence	37%
C=CC(=C)CC[C@]1(C)[C@H](C)C[C@H](O)[C@@]23C(=C[C@H](OC(=O)C(C)C)C[C@@H]12)[C@@H](OC(C)=O)O[C@H]3OC(C)=O	haemolysis	–	20 µM	–	haemolysis	10.6%
CC(C)(C)ONc1nc(Nc2ccnc(C(F)(F)F)c2)nc(-c2cccc(C(F)(F)F)n2)n1	–	female Balb/cA nude mice xenograft, plasma	oral, 18.05 mg/kg	–	half-life	7.43 h

SMILES	assay	system	conditions	how to read	measurement	result
COc1cc(-c2nc3ccccc3s2)cc(CN2CCN(CC(=O)OC(C)(C)C)CCN(CC(=O)OC(C)(C)C)CC2)c1O	UV-Vis pH titration	–	25 °C, ionic strength 0.1 M NaCl	–	pKa4	11.8
Cc1ccc(C(=O)N[C@@H](CO)CC(C)C)cc1CO	LC-MS	Sprague-Dawley rat, both sexes, rat liver microsomes	10 µM of parent drug, 20 min, pH 7.4, with: NADPH	relative to: parent drug at time zero	metabolite peak area	0.5%
CCC1CNC(CC)CN(C(C(=O)O)c2ccc(C(=O)O)cc2)C(CC)CN(CC(=O)O)C(CC)CN1 (stereo not shown)	pH-potentiometric titration	–	25 °C, 0.1 M KCl	–	sum log K3 + log K4	8
COC[C@@H](CC(C)C)NC(=O)c1ccc(CO)c(C)c1	LC-MS	Sprague-Dawley rat, both sexes, rat liver microsomes	10 µM of parent drug, 20 min, pH 7.4, with: NADPH	relative to: parent drug at time zero	metabolite peak area	35.7%
N=C(N)NCCC[C@@H]1NC(=O)[C@H](Cc2c[nH]c3ccccc23)NC(=O)[C@@H](CC2CCCCC2)NC(=O)[C@@H]2CCCN2C(=O)[C@@H](NC(=O)CCc2ccccc2)CCCNC1=O	–	C57BL/6J mice, spinal cord	intravenous, 1 mg/kg, two-compartment model	–	apparent distributional clearance	21.9 ng/(min·ng/g)
CCNC(=O)OCc1c(COC(=O)NCC)c(-c2ccc(OC)cc2)n2c1Cc1ccccc1-2	–	BALB/c nude mice, blood	dose not given, day 10	–	haemoglobin	12.7 ± 0.5 g/dL
Clc1ccc2c(c1)nc(N1CC3CNCC3C1)n2Cc1ccccc1 (stereo not shown)	metabolic stability	rat, liver microsomes	0.1 µM, 30 min, pH 7.4	–	compound remaining	85.7%
CCC(=O)N[C@@H](C)C(=O)OCC(=O)N[C@@H](C)C(=O)O	–	water	pH 4, 65 °C	–	depolymerization half-life	94 h
C#CCOc1ccc(/C=C2\SC(=O)N(CC(=O)NCc3ccccc3)C2=O)cc1	inverse Kirkwood-Buff integrals	binary solvent mixture	concentration not given, 298.15 K, mole fraction x1 0.75	–	correlation volume	5170 cm³/mol
CC(C)[C@H](NC(=O)[C@@H]1CCCN1C(=O)[C@H](CCCNC(=N)N)NC(=O)[C@H](CS)NC(=O)[C@H](Cc1c[nH]c2ccccc12)NC(=O)[C@H](CCCNC(=N)N)NC(=O)[C@@H](Cc1ccccc1)NC(=O)[C@H](Cc1c[nH]cn1)NC(=O)[C@H](CCC(=O)O)NC(=O)[C@H](CS)NC(=O)[C@H](CS)NC(=O)COCCOCCNC(=O)[C@@H]1CC(=O)N[C@@H](CCCNC(=N)N)C(=O)NCC(=O)N[C@@H](CC(=O)O)C(=O)N[C@H](Cc2ccc(O)cc2)C(=O)N1)C(N)=O [technetium-99m labelled]	–	nude mouse, M21 melanoma xenograft, skin	intravenous, 2 h	–	tissue uptake	1.16 ± 0.38 %ID/g
CCCC[C@H](NC(C)=O)C(=O)N[C@H]1CC(=O)NCCCC[C@@H](C(=O)N[C@@H](C(=O)N2CCC[C@@H]2C(N)=O)C(C)C)NC(=O)[C@H](Cc2c[nH]c3ccccc23)NC(=O)[C@H](CCCN=C(N)N)NC(=O)[C@@H](Cc2ccc3ccccc3c2)NC(=O)[C@@H]2CCCN2C1=O	–	healthy dogs, plasma	subcutaneous, 2.25 mg/kg per day, day 5, 12 h post-dose, median	–	plasma histamine	15.9 ng/mL
NC[C@@H](C(=O)Nc1ccc(-c2cn[nH]c2)cc1)c1ccccc1	metabolic stability	monkey, liver microsomes	–	–	microsomal CLint	4.21 µL/min/mg
COCCOCCOCCOc1ccc(/C=C/C2=[N+]3C(=C(c4cc(OC)cc(OC)c4)c4c(C)c(I)c(/C=C/c5ccc(OCCOCCOCCOC)cc5)n4[B-]3(F)F)C(C)=C2I)cc1	–	dichloromethane	–	–	Stokes shift	504 cm⁻¹
CCCC[C@@H]1NC(=O)[C@@H](NC(=O)[C@H](CCC(=O)O)NC(=O)CNC(=O)CN2CCN(CC(=O)O)CCN(CC(=O)O)CCN(CC(=O)O)CC2)CCCCNC(=O)C[C@@H](C(N)=O)NC(=O)[C@H](C(C)C)NC(=O)[C@@H]2CCCN2C(=O)[C@H](CCCNC(=N)N)NC(=O)CNC(=O)[C@H](Cc2c[nH]c3ccccc23)NC(=O)[C@H](CCCNC(=N)N)NC(=O)[C@@H](Cc2ccccc2)NC(=O)[C@H](Cc2c[nH]cn2)NC(=O)[C@H](CCC(=O)O)NC1=O [gallium-67 labelled]	–	normal C57 mice, kidneys	intravenous, 0.037 MBq/mouse, 2 h	–	tissue uptake	37.2 ± 2.16 %ID/g
COc1cc2c(cc1OC)CN(CCCCn1ccc3cc(OCC[18F])ccc31)C2	–	ICR mice, male, stomach	intravenous, 120 min	–	uptake	3.54 ± 0.74 %ID/organ
COc1ccc([C@@H]2CC(=O)c3c(O)cc(O[C@@H]4O[C@H](CO[C@@H]5O[C@@H](C)[C@H](O)[C@@H](O)[C@H]5O)[C@@H](O)[C@H](O)[C@H]4O)cc3O2)cc1O	–	rat plasma	15.62 ng/mL, 7 days, -80 °C, long-term storage	–	measured concentration	17.1 ± 0.38 ng/mL
CC(C)c1cnc(-c2cc(Cl)ccc2F)cc1Nc1ccncc1C(=O)NC(CO)CO	monotherapy, item: blood alkaline phosphatase increased	human patients	oral, dose not given, grade 2, phase I A	–	patients with treatment-related adverse event	0%

For quick reference, copied from above:
SMILES	assay	system	conditions	how to read	measurement	result
CCCC[C@H](NC(C)=O)C(=O)N[C@H]1CC(=O)NCCCC[C@@H](C(=O)N[C@@H](C(=O)N2CCC[C@@H]2C(N)=O)C(C)C)NC(=O)[C@H](Cc2c[nH]c3ccccc23)NC(=O)[C@H](CCCN=C(N)N)NC(=O)[C@@H](Cc2ccc3ccccc3c2)NC(=O)[C@@H]2CCCN2C1=O	–	healthy dogs, plasma	subcutaneous, 2.25 mg/kg per day, day 5, 12 h post-dose, median	–	plasma histamine	15.9 ng/mL
CC(C)[C@H](NC(=O)[C@@H]1CCCN1C(=O)[C@H](CCCNC(=N)N)NC(=O)[C@H](CS)NC(=O)[C@H](Cc1c[nH]c2ccccc12)NC(=O)[C@H](CCCNC(=N)N)NC(=O)[C@@H](Cc1ccccc1)NC(=O)[C@H](Cc1c[nH]cn1)NC(=O)[C@H](CCC(=O)O)NC(=O)[C@H](CS)NC(=O)[C@H](CS)NC(=O)COCCOCCNC(=O)[C@@H]1CC(=O)N[C@@H](CCCNC(=N)N)C(=O)NCC(=O)N[C@@H](CC(=O)O)C(=O)N[C@H](Cc2ccc(O)cc2)C(=O)N1)C(N)=O [technetium-99m labelled]	–	nude mouse, M21 melanoma xenograft, skin	intravenous, 2 h	–	tissue uptake	1.16 ± 0.38 %ID/g
Cc1ccc(C(=O)N[C@@H](CO)CC(C)C)cc1CO	LC-MS	Sprague-Dawley rat, both sexes, rat liver microsomes	10 µM of parent drug, 20 min, pH 7.4, with: NADPH	relative to: parent drug at time zero	metabolite peak area	0.5%
O=C1CCc2ccc(NS(=O)(=O)c3cccc(Oc4ccccc4)c3)cc2N1	–	C57BL/6 mouse, plasma	oral, 3 mg/kg	–	half-life	4.2 h
